{"data": "Measurements gathered from unrelated publications", "note": "Numbered parts are unrelated; each lists some results of a single study.", "chain of UniProt Q12851 (whole entry, looked up)": "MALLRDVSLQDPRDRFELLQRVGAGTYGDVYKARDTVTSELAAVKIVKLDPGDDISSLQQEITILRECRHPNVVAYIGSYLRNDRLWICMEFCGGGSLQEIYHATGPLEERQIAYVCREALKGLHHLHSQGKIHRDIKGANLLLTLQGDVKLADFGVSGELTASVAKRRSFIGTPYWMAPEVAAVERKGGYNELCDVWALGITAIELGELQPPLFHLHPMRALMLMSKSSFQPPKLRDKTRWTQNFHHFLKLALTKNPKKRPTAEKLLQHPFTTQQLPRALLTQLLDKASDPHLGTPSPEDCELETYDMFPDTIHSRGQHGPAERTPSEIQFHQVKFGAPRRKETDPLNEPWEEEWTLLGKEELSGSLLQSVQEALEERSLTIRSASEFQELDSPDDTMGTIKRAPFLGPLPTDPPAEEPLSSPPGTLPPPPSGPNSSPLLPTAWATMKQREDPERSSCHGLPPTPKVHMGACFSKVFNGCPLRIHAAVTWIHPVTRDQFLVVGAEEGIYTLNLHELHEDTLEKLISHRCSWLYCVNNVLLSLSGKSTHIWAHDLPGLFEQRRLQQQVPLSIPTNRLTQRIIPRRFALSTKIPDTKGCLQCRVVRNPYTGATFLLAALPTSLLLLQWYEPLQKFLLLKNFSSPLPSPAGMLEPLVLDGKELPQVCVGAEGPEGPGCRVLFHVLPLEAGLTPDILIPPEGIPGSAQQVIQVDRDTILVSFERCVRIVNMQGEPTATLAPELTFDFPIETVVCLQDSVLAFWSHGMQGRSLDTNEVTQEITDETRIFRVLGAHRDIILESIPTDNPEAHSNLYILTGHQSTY", "chain of UniProt P23458 (whole entry, looked up)": "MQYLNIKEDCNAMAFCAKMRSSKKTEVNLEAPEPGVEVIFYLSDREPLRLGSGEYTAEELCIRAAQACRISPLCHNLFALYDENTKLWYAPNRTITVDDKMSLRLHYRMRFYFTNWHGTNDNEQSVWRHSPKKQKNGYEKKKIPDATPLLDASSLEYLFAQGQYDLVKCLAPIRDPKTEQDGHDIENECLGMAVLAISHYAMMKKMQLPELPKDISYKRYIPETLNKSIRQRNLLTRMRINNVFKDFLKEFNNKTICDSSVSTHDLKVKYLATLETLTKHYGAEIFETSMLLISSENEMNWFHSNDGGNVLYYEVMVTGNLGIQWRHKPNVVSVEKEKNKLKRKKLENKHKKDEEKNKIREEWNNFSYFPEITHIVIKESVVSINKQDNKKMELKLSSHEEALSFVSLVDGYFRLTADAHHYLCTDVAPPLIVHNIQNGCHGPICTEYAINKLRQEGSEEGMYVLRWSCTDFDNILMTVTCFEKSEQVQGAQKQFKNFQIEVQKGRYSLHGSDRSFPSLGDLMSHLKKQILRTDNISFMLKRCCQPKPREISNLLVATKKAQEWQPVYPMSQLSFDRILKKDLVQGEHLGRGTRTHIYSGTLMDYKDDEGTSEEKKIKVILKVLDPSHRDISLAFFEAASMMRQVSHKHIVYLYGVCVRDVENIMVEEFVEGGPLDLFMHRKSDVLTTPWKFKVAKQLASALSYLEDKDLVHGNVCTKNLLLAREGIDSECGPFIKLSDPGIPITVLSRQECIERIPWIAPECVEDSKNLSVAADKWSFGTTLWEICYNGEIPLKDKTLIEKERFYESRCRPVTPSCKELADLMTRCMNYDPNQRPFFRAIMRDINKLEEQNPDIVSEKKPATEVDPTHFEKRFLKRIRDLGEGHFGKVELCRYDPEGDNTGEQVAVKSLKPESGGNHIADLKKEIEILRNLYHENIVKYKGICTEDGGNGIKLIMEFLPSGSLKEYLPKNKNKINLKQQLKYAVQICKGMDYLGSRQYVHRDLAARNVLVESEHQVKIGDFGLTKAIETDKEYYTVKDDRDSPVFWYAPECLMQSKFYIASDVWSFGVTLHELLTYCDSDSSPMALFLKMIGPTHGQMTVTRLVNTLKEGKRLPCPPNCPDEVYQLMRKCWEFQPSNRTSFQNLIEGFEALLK", "chain of UniProt P00519 (whole entry, unmodified, looked up)": "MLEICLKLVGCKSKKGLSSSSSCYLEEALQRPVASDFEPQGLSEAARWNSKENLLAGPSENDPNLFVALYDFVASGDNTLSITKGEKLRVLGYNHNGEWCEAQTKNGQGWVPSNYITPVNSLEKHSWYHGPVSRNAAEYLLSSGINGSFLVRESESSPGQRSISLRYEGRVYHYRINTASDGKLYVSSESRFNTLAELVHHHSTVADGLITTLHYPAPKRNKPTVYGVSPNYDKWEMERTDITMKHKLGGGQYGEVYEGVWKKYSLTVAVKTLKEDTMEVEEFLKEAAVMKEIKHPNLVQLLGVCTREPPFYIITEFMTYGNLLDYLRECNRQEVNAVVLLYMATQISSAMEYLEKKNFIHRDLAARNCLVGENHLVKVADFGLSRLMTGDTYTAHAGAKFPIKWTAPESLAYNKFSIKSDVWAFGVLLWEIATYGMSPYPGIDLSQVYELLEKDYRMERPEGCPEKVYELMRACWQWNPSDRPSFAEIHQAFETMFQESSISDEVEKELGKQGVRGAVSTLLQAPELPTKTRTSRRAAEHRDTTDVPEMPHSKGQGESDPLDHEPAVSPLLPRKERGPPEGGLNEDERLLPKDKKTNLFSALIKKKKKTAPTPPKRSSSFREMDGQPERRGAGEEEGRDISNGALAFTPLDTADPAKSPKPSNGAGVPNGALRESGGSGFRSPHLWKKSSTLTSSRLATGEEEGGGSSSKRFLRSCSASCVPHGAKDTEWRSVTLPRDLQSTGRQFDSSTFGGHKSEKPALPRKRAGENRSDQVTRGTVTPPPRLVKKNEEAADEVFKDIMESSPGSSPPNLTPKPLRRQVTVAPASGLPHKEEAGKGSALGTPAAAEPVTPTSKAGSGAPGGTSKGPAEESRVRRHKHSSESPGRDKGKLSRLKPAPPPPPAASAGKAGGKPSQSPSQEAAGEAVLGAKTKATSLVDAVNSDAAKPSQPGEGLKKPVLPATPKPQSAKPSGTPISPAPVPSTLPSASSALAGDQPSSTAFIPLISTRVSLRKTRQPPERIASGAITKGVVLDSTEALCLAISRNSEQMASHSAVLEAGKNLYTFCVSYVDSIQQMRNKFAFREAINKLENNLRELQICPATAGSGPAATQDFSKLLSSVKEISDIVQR", "chain of UniProt P42684 (whole entry, looked up)": "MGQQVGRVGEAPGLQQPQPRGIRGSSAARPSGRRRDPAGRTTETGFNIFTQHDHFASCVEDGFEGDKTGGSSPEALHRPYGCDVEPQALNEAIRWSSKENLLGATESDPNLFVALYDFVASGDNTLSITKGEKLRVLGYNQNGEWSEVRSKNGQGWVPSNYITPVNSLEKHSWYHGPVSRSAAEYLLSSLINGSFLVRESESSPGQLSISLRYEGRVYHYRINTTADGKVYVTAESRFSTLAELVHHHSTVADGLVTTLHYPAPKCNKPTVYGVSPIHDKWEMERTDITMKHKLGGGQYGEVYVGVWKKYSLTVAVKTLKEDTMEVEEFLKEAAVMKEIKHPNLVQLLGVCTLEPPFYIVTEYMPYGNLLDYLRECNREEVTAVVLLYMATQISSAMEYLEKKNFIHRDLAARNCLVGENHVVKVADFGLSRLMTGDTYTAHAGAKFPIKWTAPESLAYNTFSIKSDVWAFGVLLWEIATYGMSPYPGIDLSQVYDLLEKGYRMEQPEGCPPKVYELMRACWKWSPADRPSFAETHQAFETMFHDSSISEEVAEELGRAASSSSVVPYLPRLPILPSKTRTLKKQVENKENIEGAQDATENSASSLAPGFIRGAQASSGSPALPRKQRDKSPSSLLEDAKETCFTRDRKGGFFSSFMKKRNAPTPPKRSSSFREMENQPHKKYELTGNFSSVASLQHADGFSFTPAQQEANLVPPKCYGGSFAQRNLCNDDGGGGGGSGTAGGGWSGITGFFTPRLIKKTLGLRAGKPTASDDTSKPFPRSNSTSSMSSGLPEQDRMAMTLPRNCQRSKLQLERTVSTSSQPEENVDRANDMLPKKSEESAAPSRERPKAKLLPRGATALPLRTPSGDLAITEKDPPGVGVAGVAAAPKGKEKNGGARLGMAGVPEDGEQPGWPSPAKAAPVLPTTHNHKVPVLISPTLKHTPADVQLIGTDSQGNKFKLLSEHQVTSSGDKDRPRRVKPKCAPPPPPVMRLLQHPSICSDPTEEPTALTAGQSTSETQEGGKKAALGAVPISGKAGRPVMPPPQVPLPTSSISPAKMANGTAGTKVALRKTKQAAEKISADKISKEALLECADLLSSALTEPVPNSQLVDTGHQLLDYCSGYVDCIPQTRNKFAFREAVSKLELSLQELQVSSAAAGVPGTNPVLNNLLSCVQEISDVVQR", "chain of UniProt Q9P1W9 (whole entry, looked up)": "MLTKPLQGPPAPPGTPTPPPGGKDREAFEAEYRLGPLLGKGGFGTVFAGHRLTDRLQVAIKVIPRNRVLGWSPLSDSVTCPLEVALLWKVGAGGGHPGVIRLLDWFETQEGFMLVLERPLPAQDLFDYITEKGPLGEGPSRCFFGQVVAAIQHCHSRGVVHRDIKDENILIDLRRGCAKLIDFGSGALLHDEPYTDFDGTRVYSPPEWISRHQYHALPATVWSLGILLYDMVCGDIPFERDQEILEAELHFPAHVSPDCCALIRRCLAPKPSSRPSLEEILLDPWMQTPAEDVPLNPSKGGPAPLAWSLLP"}
{"data": "Block 1", "target": "Phosphate system positive regulatory protein PHO4, full length, GST-tagged (PHO4, Saccharomyces cerevisiae, UniProt P07270, residues 1-312)", "method": "competition protein-binding microarray", "form": "double-stranded DNA, one strand shown", "sample": "in vitro", "concentration": "2 µM", "notes": "whole 60-bp probe, lowest competitor level", "together with": "Cbf1 competitor, 0.05 µM", "direction": "higher = stronger binding", "constant ends, left off below": "… GTCTTGATTCGCTTGACGCTGCTG", "Residues (chain)": "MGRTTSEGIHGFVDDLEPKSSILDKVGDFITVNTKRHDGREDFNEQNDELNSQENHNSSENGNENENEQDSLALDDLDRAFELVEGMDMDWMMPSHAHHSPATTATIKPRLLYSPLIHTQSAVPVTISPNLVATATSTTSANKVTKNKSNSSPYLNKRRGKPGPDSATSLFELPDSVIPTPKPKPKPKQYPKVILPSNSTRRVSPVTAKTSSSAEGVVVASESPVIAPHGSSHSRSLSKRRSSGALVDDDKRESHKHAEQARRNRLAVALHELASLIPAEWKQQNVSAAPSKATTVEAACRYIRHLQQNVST"}
{"Sequence": "CTAACGAAGGTTTGACACGTGGGTGACAAGCCAAGT", "fluorescence intensity": "17600 a.u."}
{"Sequence": "ACATATTTTAGAAAACACGTGAAGGATACGTAAATA", "fluorescence intensity": "15600 a.u."}
{"Sequence": "AAGTGCTTTGTTCTTCACGTGCTTTTTACGTCTATG", "fluorescence intensity": "14500 a.u."}
{"Sequence": "CATACCCAACCTTGCACAGTGGGTGAAGATATTTGT", "fluorescence intensity": "4350 a.u."}
{"Sequence": "GAACTTGTGCTGTGCCAGATTGAATTTTGAAAGTAC", "fluorescence intensity": "5370 a.u."}
{"Sequence": "AAATCGGAGGTTTCACACGTAATTACATAAAGAAGA", "fluorescence intensity": "4760 a.u."}
{"Sequence": "CTACGCCGCTATTACTACGTGCTTTTTCTTTTGATT", "fluorescence intensity": "7580 a.u."}
{"Sequence": "TTCCATCCCACATTCCTCGTGTTGGATTGGCTGCAA", "fluorescence intensity": "9210 a.u."}
{"data": "Block 2", "target": "Casein kinase I isoform gamma-1 (CSNK1G1, Homo sapiens, UniProt Q9HCP0)", "effect on": "enzyme activity", "action": "inhibitor", "concentration": "0.5 µM", "baseline": "control", "chain of UniProt Q9HCP0 (whole entry, looked up)": "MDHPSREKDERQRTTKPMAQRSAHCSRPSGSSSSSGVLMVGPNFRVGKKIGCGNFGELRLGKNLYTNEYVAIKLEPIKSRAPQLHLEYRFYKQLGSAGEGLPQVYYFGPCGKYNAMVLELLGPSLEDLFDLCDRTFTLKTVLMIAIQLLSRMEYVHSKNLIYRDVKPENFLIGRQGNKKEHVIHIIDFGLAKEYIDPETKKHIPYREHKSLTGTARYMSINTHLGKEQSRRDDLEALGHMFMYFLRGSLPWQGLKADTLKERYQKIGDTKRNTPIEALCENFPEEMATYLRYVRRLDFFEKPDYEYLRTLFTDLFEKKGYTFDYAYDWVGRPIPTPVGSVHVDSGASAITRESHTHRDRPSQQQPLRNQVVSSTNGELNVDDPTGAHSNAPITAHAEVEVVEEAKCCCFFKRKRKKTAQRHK"}
{"SMILES": "CC(C)[C@H](CO)Nc1nc(Nc2cc(N)cc(Cl)c2)c2ncn(C(C)C)c2n1", "remaining activity [%]": 26.4}
{"SMILES": "Cc1nc(-c2ccccc2)c(-c2ccncc2)o1", "remaining activity [%]": 91.1}
{"SMILES": "Nc1ncnc2n[nH]c(Nc3ccc(F)cc3)c12", "remaining activity [%]": 83.3}
{"SMILES": "Cc1ccc(Nc2nccc(N(C)c3ccc4c(C)n(C)nc4c3)n2)cc1S(N)(=O)=O", "remaining activity [%]": 100}
{"SMILES": "O=S(=O)(c1cccc2cnccc12)N1CCCNCC1", "remaining activity [%]": 89.6}
{"SMILES": "CCOC(=O)c1c(C)[nH]c(/C=C2\\C(=O)Nc3ccccc32)c1C", "remaining activity [%]": 103}
{"SMILES": "CNC(=O)c1cc(Oc2ccc(NC(=O)Nc3ccc(Cl)c(C(F)(F)F)c3)cc2)ccn1", "remaining activity [%]": 102}
{"SMILES": "O=C1NC(=O)C(c2cn(CCCn3ccnc3)c3ccccc23)=C1Nc1ccccc1", "remaining activity [%]": 95}
{"SMILES": "NCCNc1ncc(C(N)=O)c(Nc2cccc(C(F)(F)F)c2)n1", "remaining activity [%]": 90.6}
{"SMILES": "Nc1ccc2ncnc(NCCc3ccc(Oc4ccccc4)cc3)c2c1", "remaining activity [%]": 97.6}
{"SMILES": "COc1cc2nccc(Oc3ccc(NC(=S)NC(=O)c4ccccc4C)cc3)c2cc1OC", "remaining activity [%]": 80.1}
{"SMILES": "CN(C)c1ccc(C=C2C(=O)Nc3ccccc32)cc1", "remaining activity [%]": 93}
{"SMILES": "Nc1[nH]nc2nc3ccccc3nc12", "remaining activity [%]": 99}
{"SMILES": "O=C(CCCc1ccc(-c2ccccc2F)cc1)Nc1ccc(O)cc1", "remaining activity [%]": 104}
{"SMILES": "COc1cc2ncnc(Nc3ccc(Oc4ccccc4)cc3)c2cc1OC", "remaining activity [%]": 90}
{"data": "Block 3", "target": "TAR DNA-binding protein 43, full length, His tag (TARDBP, Homo sapiens, UniProt Q13148, residues 1-414)", "method": "RNA Bind-n-Seq", "form": "RNA", "sample": "in vitro", "concentration": "20 nM", "notes": "6-mer, flanks averaged, single round", "together with": "150 mM LiCl", "baseline": "input library", "direction": "higher = stronger binding"}
{"Sequence": "CAACUC", "6-mer enrichment (R)": 0.831}
{"Sequence": "UAUAGC", "6-mer enrichment (R)": 0.902}
{"Sequence": "UCAUGU", "6-mer enrichment (R)": 0.999}
{"Sequence": "CAAUGU", "6-mer enrichment (R)": 0.972}
{"Sequence": "AUGUUC", "6-mer enrichment (R)": 0.985}
{"Sequence": "CGCGGC", "6-mer enrichment (R)": 0.977}
{"Sequence": "UUUGUG", "6-mer enrichment (R)": 1.7}
{"Sequence": "GCCUCG", "6-mer enrichment (R)": 0.88}
{"data": "Block 4", "SMILES": "CCCCN(CCCC)C(=O)CN1C[C@@H](c2cc(OC)c3c(c2)OCO3)[C@H](C(=O)O)[C@H]1CC(C)(C)CCC", "effect on": "cell-free assay", "method": "competition with immobilised ligand", "concentration": "1 µM"}
{"target": "STK39 (Homo sapiens, UniProt Q9UEW8)", "remaining binding [%]": 100}
{"target": "PIM2 (Homo sapiens, UniProt Q9P1W9)", "remaining binding [%]": 96.3}
{"target": "STK32B (Homo sapiens, UniProt Q9NY57)", "remaining binding [%]": 98.4}
{"target": "IRAK1 (Homo sapiens, UniProt P51617)", "remaining binding [%]": 76.6}
{"target": "MYLK2 (Homo sapiens, UniProt Q9H1R3)", "remaining binding [%]": 100}
{"target": "ABL2 (Homo sapiens, UniProt P42684)", "remaining binding [%]": 100}
{"target": "MAP4K2 (Homo sapiens, UniProt Q12851)", "remaining binding [%]": 100}
{"target": "Tyrosine-protein kinase ABL1, phosphorylated (ABL1, Homo sapiens, UniProt P00519, E255K)", "remaining binding [%]": 93.5}
{"target": "MAP3K4 (Homo sapiens, UniProt Q9Y6R4)", "remaining binding [%]": 85.5}
{"target": "Tyrosine-protein kinase JAK1, JH1 (JAK1, Homo sapiens, UniProt P23458)", "remaining binding [%]": 79}
{"target": "PIK3CA (Homo sapiens, UniProt P42336, M1043I)", "remaining binding [%]": 100}
{"note": "Some of these lines once more (block 3):"}
{"Sequence": "CGCGGC", "6-mer enrichment (R)": 0.977}
{"Sequence": "UUUGUG", "6-mer enrichment (R)": 1.7}
{"Sequence": "UAUAGC", "6-mer enrichment (R)": 0.902}
{"Sequence": "AUGUUC", "6-mer enrichment (R)": 0.985}
{"Sequence": "GCCUCG", "6-mer enrichment (R)": 0.88}
{"Sequence": "UCAUGU", "6-mer enrichment (R)": 0.999}
